Results from different studies.
Each line is one published result; not all experiments were run side by side. Numbers after ± are the reported error. In brackets after ≈: the same amount, converted by molar mass.
Organism: Pseudomonas aeruginosa

C=C(CO)C(=O)O[C@H]1CC(=C)[C@@H]2C[C@H](O)[C@](O)(CCl)[C@@H]2[C@H]2OC(=O)C(=C)C12 (some centres unmarked)  inhibition zone (concentration not given): 8 ± 1.3 mm
O=c1cc(-c2ccc(O)cc2)oc2cc(O)cc([O][Ga+][O]c3cc(O)cc4oc(-c5ccc(O)cc5)cc(=O)c34)c12  inhibition (pyocyanin secretion; 0.08 µM, 20 h): 50%
CN(C)CCn1nc(C23CC4CC(CC(C4)C2)C3)n(C)c1=S  inhibition zone diameter (IFO 3448; 200 µg/disc, 24 h, 37 °C): < 10 mm
CCCCCCCCCCCCCCCCCC(=O)N[C@@H](CCCCN)C(=O)N[C@@H](CCCCN)C(=O)N[C@@H](CCCNC(=N)N)C(=O)N[C@@H](CCCCN)C(=O)N[C@@H](CCCCN)C(N)=O  MBC (ATCC 27853): 128 mg/L (≈ 134 µM)
CCCCCC1CC2CCCC3CC(C)N=C(N1)N32 (centres unmarked)  IC50 (bacterial growth; ATCC 27853): 48.2 µM
Cc1cccc2c3c(ccc12)C(=O)C1=C(OC[C@H]1C)C3=O  inhibition (cytotoxicity; J774.A1, PAO1; 100 µM, 5 h, serum-free medium): < 70%
CC(=O)N[C@H](CCCCN)C(=O)N[C@H](CC(C)C)C(=O)N[C@H](CCCCN)C(=O)N[C@H](CO)C(=O)N[C@H](CC(C)C)C(=O)N[C@H](CC(C)C)C(=O)N[C@H](CCCCN)C(=O)N[C@@H](C(=O)N[C@H](CC(C)C)C(=O)N[C@H](CO)C(=O)N[C@H](CCCCN)C(=O)N[C@H](C)C(=O)N[C@H](CCCCN)C(=O)N[C@H](CCCCN)C(=O)N[C@H](CCCCN)C(=O)N[C@H](CCCCN)C(=O)N[C@H](CC(C)C)C(=O)N[C@H](CCCCN)C(=O)N[C@@H](C(=O)N[C@H](CC(C)C)C(=O)N[C@H](CC(C)C)C(=O)N[C@H](CCCCN)C(=O)N[C@H](C)C(=O)N[C@H](CC(C)C)C(=O)N[C@H](CO)C(=O)N[C@H](CCCCN)C(N)=O)[C@H](C)O)[C@H](C)O  MIC geometric mean (six isolates): 1.5 µM (≈ 4.47 µg/mL)
CC(=O)[O-].O.O.O.O.[Mn+2].[O-]c1ccc(Br)cc1C=NCCN1CCOCC1  inhibition zone diameter (20 µL of 100 µM per disc): 15 mm
CC(C)C[C@@H](NC(=O)[C@@H](CCCCN)NC(=O)[C@@H](CCCCNC(=O)[C@@H](CC(C)C)NC(=O)[C@@H](CCCCN)NC(=O)[C@@H](CCCCNC(=O)[C@@H](CC(C)C)NC(=O)[C@@H](CCCCN)NC(=O)[C@@H](CCCCNC(=O)[C@@H](CC(C)C)NC(=O)[C@H](N)CCCCN)NC(=O)[C@@H](CC(C)C)NC(=O)[C@H](N)CCCCN)NC(=O)[C@@H](CC(C)C)NC(=O)[C@@H](CCCCN)NC(=O)[C@@H](CCCCNC(=O)[C@@H](CC(C)C)NC(=O)[C@H](N)CCCCN)NC(=O)[C@@H](CC(C)C)NC(=O)[C@H](N)CCCCN)NC(=O)[C@@H](CC(C)C)NC(=O)[C@@H](CCCCN)NC(=O)[C@@H](CCCCNC(=O)[C@@H](CC(C)C)NC(=O)[C@@H](CCCCN)NC(=O)[C@@H](CCCCNC(=O)[C@@H](CC(C)C)NC(=O)[C@H](N)CCCCN)NC(=O)[C@@H](CC(C)C)NC(=O)[C@H](N)CCCCN)NC(=O)[C@@H](CC(C)C)NC(=O)[C@@H](CCCCN)NC(=O)[C@@H](CCCCNC(=O)[C@@H](CC(C)C)NC(=O)[C@H](N)CCCCN)NC(=O)[C@@H](CC(C)C)NC(=O)[C@H](N)CCCCN)C(N)=O  MBIC (biofilm formation; PAO1; 24 h, 37 °C): 16 µg/mL
COc1cc(NC(=O)CSc2nc3ccccc3c(=O)n2-c2ccc(S(N)(=O)=O)cc2)cc(OC)c1OC  inhibition zone (microbial growth, well diffusion; ATCC27853; 500 µg/mL, 24 h): 18 mm
O=c1cc(-c2ccccc2)oc2cc(O)cc([O][Ga+][O]c3cc(O)cc4oc(-c5ccccc5)cc(=O)c34)c12  biofilm inhibition (crystal violet; 0.08 µM, 48 h, static; baseline: negative control): ~70%
Cn1c(SCCN2CCCC2)nnc1C12CC3CC(CC(C3)C1)C2  inhibition zone diameter (IFO 3448; 200 µg/disc, 24 h, 37 °C): < 10 mm
CC(C)C[C@@H]1NC(=O)[C@H](CC(C)C)NC(=O)[C@H](CC(C)C)NC(=O)[C@@H]2CSCC(=O)N[C@@H](CCCCN)C(=O)N[C@@H](CCCCN)C(=O)N[C@@H](CCCCN)C(=O)NCCCC[C@H](NC(=O)[C@H](CCCCN)NC(=O)[C@H](CCCCN)NC(=O)[C@H](CCCCN)NC(=O)CSC[C@@H](C(=O)N[C@@H](CCCCN)C(N)=O)NC1=O)C(=O)N[C@@H](CCCCN)C(=O)N[C@@H](CC(C)C)C(=O)N[C@@H](CC(C)C)C(=O)N2  biofilm dispersal (WST-8; PAO1; 32 µg/mL, 24 h, 37 °C, preformed biofilm): 0%
Cc1cc(=O)oc2cc3c(c(C)c12)C(=O)c1c(O)cccc1C3=O  zone of inhibition (MTCC 2453; 100 µg/disc): < 8 mm
CC[C@H](C)[C@H](NC(=O)[C@H](Cc1c[nH]cn1)NC(=O)[C@H](CCCCNC(=O)[C@@H](NC(=O)[C@H](CCCCN)NC(=O)[C@H](Cc1ccccc1)NC(=O)[C@H](CCCCNC(=O)[C@H](CC(C)C)NC(=O)[C@@H]1CCCN1C(=O)[C@H](CCCCN)NC(=O)C[C@@H]1O[C@@H](C)[C@@H](O)[C@@H](O)[C@@H]1O)NC(=O)[C@H](CC(C)C)NC(=O)[C@@H]1CCCN1C(=O)[C@H](CCCCN)NC(=O)C[C@@H]1O[C@@H](C)[C@@H](O)[C@@H](O)[C@@H]1O)[C@@H](C)CC)NC(=O)[C@@H](NC(=O)[C@H](CCCCN)NC(=O)[C@H](Cc1ccccc1)NC(=O)[C@H](CCCCNC(=O)[C@H](CC(C)C)NC(=O)[C@@H]1CCCN1C(=O)[C@H](CCCCN)NC(=O)C[C@@H]1O[C@@H](C)[C@@H](O)[C@@H](O)[C@@H]1O)NC(=O)[C@H](CC(C)C)NC(=O)[C@@H]1CCCN1C(=O)[C@H](CCCCN)NC(=O)C[C@@H]1O[C@@H](C)[C@@H](O)[C@@H](O)[C@@H]1O)[C@@H](C)CC)C(N)=O  concentration for 100% biofilm dispersal (PAO1; together with: tobramycin 0.1 µM): 10 µM
COc1ccc(-c2ccn(CC[C@](C)(C(=O)NO)S(C)(=O)=O)c(=O)c2)c(F)c1  ED50 (PA-1955, mice acute septicaemia model; subcutaneous): 55.9 mg/kg
COc1ccc(NC(=O)CSc2nc3ccccc3c(=O)n2-c2ccc(S(N)(=O)=O)cc2)cc1  inhibition zone (microbial growth, well diffusion; ATCC27853; 500 µg/mL, 24 h): 15 mm
CCCCCCCCCC(=O)CC(=O)Nc1ccccc1  elastase inhibition (elastin-Congo red; PAO1 wild type; 100 µM): ≥ 50%
CC[C@@H](C)[C@@H](NC(=O)[C@@H](Cc1c[nH]c2ccccc12)NC(=O)[C@@H](CCCNC(=N)N)NC(=O)[C@H](N)CCCNC(=N)N)C(=O)N[C@H](CCCNC(=N)N)C(=O)N[C@@H](C(=O)N[C@H](C)C(=O)N[C@@H](C(=O)N[C@@H](C(=O)N[C@H](CC(C)C)C(=O)N[C@H](CCCNC(=N)N)C(=O)N[C@@H](C(N)=O)C(C)C)[C@H](C)CC)C(C)C)C(C)C  survival (PAO1, Galleria mellonella larvae; proleg injection, 20 µg per larva, 24 h post infection, 37 °C, dosed 1 h after infection): 50 ± 8%
O=[N+]([O-])c1ccc(CSc2nnc(C34CC5CC(CC(C5)C3)C4)n2-c2ccccc2)cc1  inhibition zone diameter (IFO 3448; 200 µg/disc, 24 h, 37 °C): < 10 mm
CCCCCCCCCc1nc2cc(Cl)ccc2c(=O)n1CCCN  viable count (bactericidal; PAO1, LB; 50 µM, 3 h): increased
Oc1cc(C(F)(F)F)ccc1-c1nc2c(C(F)(F)F)cc(C(F)(F)F)cc2[nH]1  MIC of colistin (colistin potentiator; TRPA 161, colistin-resistant; 5 µM): 0.25 mg/L
COc1cc(OC)c2c(c1)C(=O)c1cc3oc(=O)cc(C)c3c(O)c1C2=O  zone of inhibition (MTCC 2453; 100 µg/disc): < 8 mm
CC[C@@H](C)[C@@H](NC(=O)[C@@H](C)NC(=O)[C@@H](CCCCN)NC(=O)[C@@H](CC(C)C)NC(=O)[C@@H](C)NC(=O)[C@H](NC(=O)[C@@H](CCCCN)NC(=O)[C@@H](CC(C)C)NC(=O)[C@H](NC(=O)[C@@H](CCCCN)NC(=O)[C@@H](CCCCN)NC(=O)[C@@H](CCCCN)NC(=O)[C@@H](C)NC(=O)[C@@H](CCCCN)NC(=O)[C@@H](CO)NC(=O)[C@@H](Cc1ccccc1)NC(=O)[C@H](NC(=O)[C@@H](CCCCN)NC(=O)[C@@H](CC(C)C)NC(=O)[C@@H](Cc1ccccc1)NC(=O)[C@@H](CO)NC(=O)[C@@H](CCCCN)NC(=O)[C@@H](Cc1c[nH]c2ccccc12)NC(=O)[C@@H](CCCCN)NC(C)=O)[C@H](C)O)C(C)C)[C@H](C)O)C(=O)N[C@H](CO)C(=O)N[C@H](CCCCN)C(N)=O  therapeutic index (six isolates; baseline: HC50 over geometric mean MIC): 159
CCCCCCCCCCCCCCCCC(=O)N[C@@H](CCCCN)C(=O)N[C@@H](CCCCN)C(=O)N(CCCCN)CC(=O)N[C@@H](CCCCN)C(=O)N[C@@H](CCCCN)C(N)=O  MBC (ATCC 27853): 128 mg/L (≈ 141 µM)
CC(=O)N[C@H](CCCCN)C(=O)N[C@H](CC(C)C)C(=O)N[C@H](CCCCN)C(=O)N[C@H](CO)C(=O)N[C@H](CC(C)C)C(=O)N[C@H](CC(C)C)C(=O)N[C@H](CCCCN)C(=O)N[C@@H](C(=O)N[C@H](CC(C)C)C(=O)N[C@H](CO)C(=O)N[C@H](CCCCN)C(=O)N[C@H](C)C(=O)N[C@H](CCCCN)C(=O)N[C@H](CCCCN)C(=O)N[C@H](CCCCN)C(=O)N[C@H](CC(C)C)C(=O)N[C@H](CC(C)C)C(=O)N[C@H](CCCCN)C(=O)N[C@@H](C(=O)N[C@H](C)C(=O)N[C@H](CC(C)C)C(=O)N[C@H](CCCCN)C(=O)N[C@H](C)C(=O)N[C@H](CC(C)C)C(=O)N[C@H](CO)C(=O)N[C@H](CCCCN)C(N)=O)[C@H](C)O)[C@H](C)O  MIC geometric mean (six isolates): 1 µM (≈ 2.92 µg/mL)
CNC1=C([N+](=O)[O-])C2(C(=O)Nc3ccc([N+](=O)[O-])cc32)C2=C(CCCC2=O)O1 (centres unmarked)  inhibition (growth; MTCC 2453; 250 µg/mL, 24 h): 59%
CC[C@@H](C)[C@@H](NC(=O)[C@@H](C)NC(=O)[C@@H](CCCCN)NC(=O)[C@@H](CC(C)C)NC(=O)[C@@H](CC(C)C)NC(=O)[C@H](NC(=O)[C@@H](CCCCN)NC(=O)[C@@H](CC(C)C)NC(=O)[C@@H](CCCCN)NC(=O)[C@@H](CCCCN)NC(=O)[C@@H](CCCCN)NC(=O)[C@@H](CCCCN)NC(=O)[C@@H](C)NC(=O)[C@@H](CCCCN)NC(=O)[C@@H](CO)NC(=O)[C@@H](Cc1ccccc1)NC(=O)[C@H](NC(=O)[C@@H](CCCCN)NC(=O)[C@@H](CC(C)C)NC(=O)[C@@H](Cc1ccccc1)NC(=O)[C@@H](CO)NC(=O)[C@@H](CCCCN)NC(=O)[C@@H](Cc1c[nH]c2ccccc12)NC(=O)[C@@H](CCCCN)NC(C)=O)[C@H](C)O)[C@H](C)O)C(=O)N[C@H](CO)C(=O)N[C@H](CCCCN)C(N)=O  therapeutic index (six isolates; baseline: HC50 over geometric mean MIC): 141
CCOC(=O)c1sc(N/N=C/c2c(-c3ccc(C)cc3)nc3ncccn23)nc1C  inhibition zone (microbial growth, well diffusion; ATCC27853; 100 µg/mL): 21 mm
